Results from different studies.
Numbered parts are unrelated; each lists some results of a single study.

Set 1
Target: RNA binding protein fox-1 homolog 2, RRM domain, GST-SBP tag (RBFOX2, Homo sapiens, UniProt O43251-10, residues 100-194)
Technique: RNA Bind-n-Seq
Molecule type: RNA
Matrix: in vitro
Tested at: 365 nM
Setting: natural RNA segment, single round, ends assumed
Reference: no-protein control
Direction: higher = stronger binding
Construct (chain): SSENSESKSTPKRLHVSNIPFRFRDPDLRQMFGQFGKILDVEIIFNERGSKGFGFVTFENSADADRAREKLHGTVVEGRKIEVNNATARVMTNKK
Oligonucleotide	RBNS enrichment (R)
GGGAGUUCUACAGUCCGACGAUCGGUGCCCAAAUUGCCAGCUGGCAAAAUGAAUAACCGUGAUCUCAAACCCCAGCCUGAUAUAGUCUUGCUUCCGUUGCCCACUGCCUAUGAGCUAGACAGCACCAAACUGAUGGAAUUCUCGGGUGCCAA	0.518
GGGAGUUCUACAGUCCGACGAUCAGCUUUCUUUCACCCAGCUUUGUUGUUUUAAUUAACUGCCCAUUAGAGAGACUGUACUUUUUUUCUAGAAAAAAAUAUUGUGAAACAGUUUUCUGUAGUGAUAUUGUUGAUGGAAUUCUCGGGUGCCAA	0.485
GGGAGUUCUACAGUCCGACGAUCAUUAACCCAAGUGAACCAACCAAAGUCACCAGUUCAGAAGUGCUAAGCUAAUAGGAGUCUGACCCGAGGGCCUGCUGCUUCCUGGUUAAGUAUCUUUUGAGAUUCUAGAAUGGAAUUCUCGGGUGCCAA	0.329
GGGAGUUCUACAGUCCGACGAUCGUGUGAGUGUGCAAGUAUGUGUGCAGAGCUUGUGUUUCAUACUGCAGAUAUAAAUAAAGGAAGAUAGAGAACAUUCCUGCUGUGGGACUGUGAGUUCUGGGACUCAGAGUUGGAAUUCUCGGGUGCCAA	1.02

Set 2
Target: Interferon regulatory factor 7, full length, phosphomimetic (IRF7, Homo sapiens, UniProt Q92985, residues 1-503, S101K/S471D/S472D/S475D/S476D/S477D/S483D/S484D/S487D)
Technique: protein-binding microarray
Molecule type: double-stranded DNA, one strand shown
Matrix: in vitro
Tested at: 250 nM
Setting: 60-bp whole probe
Together with: salmon DNA 0.4 mg/ml
Reference: random background probes
Direction: higher = stronger binding
All sequences stand within: GCCTAGCAC … GTCTTGATTCGCTTGACGCTGCTG
Construct (chain): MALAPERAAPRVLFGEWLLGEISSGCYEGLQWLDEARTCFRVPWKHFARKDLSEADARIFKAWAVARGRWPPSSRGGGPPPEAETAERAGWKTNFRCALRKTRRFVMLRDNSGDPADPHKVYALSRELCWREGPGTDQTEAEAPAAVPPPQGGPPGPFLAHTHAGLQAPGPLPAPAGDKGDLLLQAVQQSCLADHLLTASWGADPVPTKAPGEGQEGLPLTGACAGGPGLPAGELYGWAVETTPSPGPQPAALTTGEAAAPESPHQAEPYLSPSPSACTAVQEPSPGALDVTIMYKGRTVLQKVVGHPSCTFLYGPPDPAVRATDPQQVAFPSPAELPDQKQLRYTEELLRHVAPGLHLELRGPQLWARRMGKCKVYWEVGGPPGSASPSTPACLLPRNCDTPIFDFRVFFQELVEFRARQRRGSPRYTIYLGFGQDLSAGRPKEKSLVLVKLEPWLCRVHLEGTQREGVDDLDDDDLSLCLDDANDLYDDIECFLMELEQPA
Oligonucleotide	log fluorescence
GACGGTATCGGGTTTCGGGATGTGCTA	4.23 z-score
GACGAACTGGGGACTGGAGAAGTGCTA	-0.587 z-score
CTCTGCTTGTGTCTGGGCTTGTGCTAG	-0.541 z-score
GACGGAATCCTTATCCTGACGTGCTAG	0.095 z-score
TTAGATATCAGTTTCGACTAGTGCTAG	3.75 z-score
TCAGCTCTAGGTTCTCTGAAGGTGCTA	-0.723 z-score
TCATTTCTCTATTGCTTACTGTGCTAG	2.35 z-score
TCAGTTTTCTCATTCGTACTGTGCTAG	1.74 z-score
GACGATTACGGGACTGGAGACGTGCTA	-0.449 z-score

Set 3
Target: Prothrombin, mature alpha-thrombin (F2, Homo sapiens, UniProt P00734)
Technique: aptamer microarray, sandwich
Molecule type: DNA with 2'F-ANA
Matrix: in vitro
Tested at: 200 nM
Setting: whole 15-mer aptamer, many near background
Together with: Cy3 exosite-II aptamer, 400 nM
Direction: higher = stronger binding
Oligonucleotide: GGTTGGTGTGGTTGG
Modification	mean fluorescence intensity
2'F-ANA at 4 5 8 9 11 12 13 14	83.6 a.u.
2'F-ANA at 1 4 7 8 9 11 12 13 15	168 a.u.
2'F-ANA at 1 5 6 7 11 14 15	48.7 a.u.
2'F-ANA at 1 2 12 13 14 15	64.2 a.u.
2'F-ANA at 3 4 6 9	626 a.u.
2'F-ANA at 2 3 7 8 9 10 11	404 a.u.

Further values, each from its own experiment
Substance	target	assay	test system	conditions	scale	quantity	value
PhoQ, residues 284 288 289 292 302 303 AAQSYM	PhoP, residues 12 14 15 18 19 LWHVM (Escherichia coli, UniProt P23836)	Sort-seq, item: YFP reporter	E. coli	PhoQ-PhoP variant library, together with: 10 µM Mg2+	reference: high Mg2+ state, higher = stronger signaling	fold induction	16.2

Some of these lines once more (set 2):
Oligonucleotide	log fluorescence
GACGGTATCGGGTTTCGGGATGTGCTA	4.23 z-score
GACGAACTGGGGACTGGAGAAGTGCTA	-0.587 z-score
